Experimental data gathered from unrelated publications.
A part holds a random share of what one study measured. Substitutions count along the parent as printed.

Block 1 — method: RNA Bind-n-Seq; form: RNA; matrix: in vitro; tested at: 365 nM; reference: no-protein control; reading: higher = stronger binding
Target: RNA binding protein fox-1 homolog 2, RRM domain, GST-SBP tag (RBFOX2, Homo sapiens, UniProt O43251-10, residues 100-194)
Notes: natural RNA segment, single round, ends assumed
Construct (chain): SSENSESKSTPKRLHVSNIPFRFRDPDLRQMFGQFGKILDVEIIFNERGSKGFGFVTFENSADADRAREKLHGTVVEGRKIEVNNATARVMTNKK
Under “RBNS enrichment (R)”, `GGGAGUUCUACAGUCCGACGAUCUCCUACUGGCAGCUCCAGGCACCCCCCUCUCACCACGCCGUUUGCUGGCUCUGACACUGUUGGGUGAGGGUCCUGGUCCUGCUGUCUUCCCUUCUGGCCUCUGCACAGGGUGGAAUUCUCGGGUGCCAA` is recorded as 0.442.
`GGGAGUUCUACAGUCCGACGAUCUGAAAAUAUGUAAAGCUGUUGAGAUGUGUUUACUUAUACUUCAGAACAUUAAAAGUUUAAAAACUGGAUUUCAGAUCAAAGAGGCAUCAUUAUCUUUAUUCUGUUUUUCAUGGAAUUCUCGGGUGCCAA` — result for “RBNS enrichment (R)”: 0.789.
Under “RBNS enrichment (R)”, `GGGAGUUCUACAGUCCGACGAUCCUUUCUCCACUUUUCAUCAUUUUGUGUUUGAUGAUUUAAAAGAAGCUUGACUAUUCCUCAGCUCUUGUGCCAAGGAGGGUUUUUUUUUUUUAAGACUCUUAAACUCAAAAUGGAAUUCUCGGGUGCCAA` is recorded as 0.345.
`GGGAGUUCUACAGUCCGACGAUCUGGCAGCAUAGGUUCUAAUUUUCUUUUGAAGAGAAAUUGUGGGAAGGGUAAACUUUUGAGAUUUUUUUUUUUAAAACAAUUUUAUGUUUGUGCACUUUGUGUUAAUCUCAUGGAAUUCUCGGGUGCCAA` — result for “RBNS enrichment (R)”: 0.886.
For `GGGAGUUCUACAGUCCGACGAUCAGAAAUGGGACAUCUAAUAGUCCCUAAGUGCUAUUAAAUACCUUAUUGGACAAGGGCUUGCUUCAAGCAUCUGUAUUAGUCUGUAUUAAUGCUGCUGAUAAAGACGUACCUGGAAUUCUCGGGUGCCAA`, “RBNS enrichment (R)” read 0.281.
For `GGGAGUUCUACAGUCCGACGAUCUAGCGCAGAAUGUUUUCUUGCAGAGCCUAGAGUACUUUGUUAAUGUUCUUCCGUUUGCUGCAACGAUGUCCUUGGAAAAAGAUAGAAUGGAAAUUAUUUUUCCAAAAUAAUGGAAUUCUCGGGUGCCAA`, “RBNS enrichment (R)” read 5.18.
For `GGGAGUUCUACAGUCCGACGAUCCUGAAUCCAGGGCUUACUAAGUAGGGAAGUCAGUUUACAUAUUUCAGUUUUCCUCUGAUGUUUUUGAGGUACUGUGUAUUUGCAGAAGUUUAAGCAGAAGGGUUUUGUUUUGGAAUUCUCGGGUGCCAA`, “RBNS enrichment (R)” read 0.558.
`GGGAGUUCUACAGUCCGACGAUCUUCACUUGCAUAUGAAAUAUAAGGCAGUUAACAUCUUGUUUGUGGCUUAAGCAAGGACAUUAAUCCUACUAGAUGAAGGGGAAGUUGGUUCUGUUGUCUUAAGGGAUGCCUGGAAUUCUCGGGUGCCAA`: “RBNS enrichment (R)” 0.658.
`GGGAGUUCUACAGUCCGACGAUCUGAUUGUGUCCAAUAUGGUGUCUCGCUUGUGUCCUUAUUGGUCCCUUACCCUUUCUGUGUCCAUUGCUGGCCAUGGUCACUGAACUUGAAAUCACAGCCCUGCCAUUGGAUGGAAUUCUCGGGUGCCAA` — result for “RBNS enrichment (R)”: 1.72.
Under “RBNS enrichment (R)”, `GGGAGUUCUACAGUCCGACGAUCUAUUGUGUUUUCCAUCCCUCACCCUCAACAGGAUUAAAAUAAAACAUGCUGGGUUUUUUUGUUUUGUUUUGUUUUGUUUUUAAAUUCUUUUAAUUGGAGAGUUUAUUCUGUGGAAUUCUCGGGUGCCAA` is recorded as 1.53.
For `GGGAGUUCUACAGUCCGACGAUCAAUUGUUUAUUCCCAAAUUGAAAUACACAAGAAAAUAUAAUUUAAGUCUGAAAUUUAACGCCUACUUCCUAUAACACAUUUUAGGAUGCUUUCUGAUGAUUUAAACUUUGUGGAAUUCUCGGGUGCCAA`, “RBNS enrichment (R)” read 0.547.
For `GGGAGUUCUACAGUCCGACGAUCCAGGAUGCUAACAUCUAAAAAUAGACUUAAAUCUCAUUGCUUACAAGCCUAAGAAUCUUUAGAGAAGUAUACAUAAGUUUAGGAUAAAAUAAUGGGAUUUUCUUUUCUUUUGGAAUUCUCGGGUGCCAA`, “RBNS enrichment (R)” read 0.417.

Block 2 — method: EMSA with sequencing; form: double-stranded DNA, one strand shown; matrix: in vitro; tested at: 10 and 20 nM; reference: negative control set to 0; reading: higher = stronger binding
Target: Hepatocyte nuclear factor 3-alpha (Foxa1, Mus musculus, UniProt P35582, residues 1-468, full length assumed)
UniProt P35582, sequence (whole entry, looked up): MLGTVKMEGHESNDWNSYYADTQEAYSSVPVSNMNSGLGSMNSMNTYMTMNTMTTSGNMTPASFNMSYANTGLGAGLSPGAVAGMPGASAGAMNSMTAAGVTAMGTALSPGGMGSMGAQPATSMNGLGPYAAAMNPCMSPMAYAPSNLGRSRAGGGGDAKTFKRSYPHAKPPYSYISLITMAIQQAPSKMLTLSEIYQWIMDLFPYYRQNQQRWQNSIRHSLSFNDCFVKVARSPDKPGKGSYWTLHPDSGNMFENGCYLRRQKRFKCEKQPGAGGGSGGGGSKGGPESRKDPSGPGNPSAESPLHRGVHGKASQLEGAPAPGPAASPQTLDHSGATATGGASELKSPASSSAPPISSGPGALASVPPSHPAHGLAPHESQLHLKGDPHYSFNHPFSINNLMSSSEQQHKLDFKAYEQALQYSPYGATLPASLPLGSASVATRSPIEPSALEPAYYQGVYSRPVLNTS
Notes: whole designed probe, mean of two concentrations, ends assumed
`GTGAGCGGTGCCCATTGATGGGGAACCTCCTACTGATTGCCATATTTCTTTCACAGGATAACATAAGATTGGGTCAGCAGAATGGTGTTAACATGTTTATTTTGAGTGACTCACTCACAGCAAACAATGGTTGAGTTCAGGACTCTGGGCTGCCCAATGGTCCACTGCCAACTCTTAGGTTTAGACTTGGTGTGCAAGCCTGGTGTGCACTGGCTTTCCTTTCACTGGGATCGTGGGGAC`: “normalised bound fraction” 0.27 ratio.
`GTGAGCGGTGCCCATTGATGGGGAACCAGGTTCATAGATCTAACAAATCAGAGAGCCAAGAGTGAAATCAGGCCAAATTAACATCCATTACACAATGCTGTCTCCCAAGCTCCAAGTCTGTTTACCCTGGGCAAATATTACACTTATATTTCAAAAGCAAAGGGAAGAGAGGGAAGTGGATGCTTCTAAATGCAGGAGAAGCAAATGGAAAATTTTGTGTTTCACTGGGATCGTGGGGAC`: “normalised bound fraction” 0.216 ratio.
`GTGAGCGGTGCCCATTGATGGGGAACAACAGAATTATGCCTTGCATACTGAGTAAGTGATGACATTCAGCAGAACACCCACTATGGAGAGCACCAGATTATAGCTGTCCTTAAACTGCTTGTTTGCTTTGCCCTGATAAAAGAAAAAATGTTCATAGAGTTTTCTAAGTCTCTTTTGTGTGGTTAGTTTATTTGCTTGTTGTATGTGAATAAGAAAGATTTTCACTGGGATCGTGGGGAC`: “normalised bound fraction” 0.335 ratio.
Under “normalised bound fraction”, `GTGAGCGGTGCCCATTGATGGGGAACATCTTCCCCCTCTTCCTTGCCCCACCAGCTCACCTACGGGGGTTATTTGCAGATAGGAAAATAAATAAAGCCGGCATTCGTTAACGCAGTTCTGGCGCAAACTGCTGTTTGCTCTGCATGAATCATGGTCCTTACGCGAGGCGTGGCTCCGGGAGAGCAAAGCACCGTGTCAGGCGCATGATCCGGGCTCGCCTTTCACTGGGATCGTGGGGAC` is recorded as 0.353 ratio.
For `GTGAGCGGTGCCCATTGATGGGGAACATCTTCCCCCTCTTCCTTGCCCCACCAGCTCACCTACGGGGGTTATTTGCAGATAGGAAAATAAATAAAGCCGGCATTCGTTAACGCAGTTCTGGCGCAAACTGCTGTTTGCTCTGCATCTAACATGGTCCTTACGCGACGCCAGGCTCCGGGAGAGCAAAGCACCGTGTCAGGCGCATGATCCGGGGTGGCCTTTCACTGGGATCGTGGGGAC`, “normalised bound fraction” read 0.359 ratio.

Block 3 — method: RNA Bind-n-Seq; form: RNA; matrix: in vitro; tested at: 200 nM; notes: whole 134-nt RNA, ends assumed; with: 150 mM LiCl; reference: input library; reading: higher = stronger binding; library: 7-deaza-guanosine replaces G
Target: Ras GTPase-activating protein-binding protein 1, full length (G3BP1, Homo sapiens, UniProt Q13283)
UniProt Q13283, sequence (whole entry, looked up): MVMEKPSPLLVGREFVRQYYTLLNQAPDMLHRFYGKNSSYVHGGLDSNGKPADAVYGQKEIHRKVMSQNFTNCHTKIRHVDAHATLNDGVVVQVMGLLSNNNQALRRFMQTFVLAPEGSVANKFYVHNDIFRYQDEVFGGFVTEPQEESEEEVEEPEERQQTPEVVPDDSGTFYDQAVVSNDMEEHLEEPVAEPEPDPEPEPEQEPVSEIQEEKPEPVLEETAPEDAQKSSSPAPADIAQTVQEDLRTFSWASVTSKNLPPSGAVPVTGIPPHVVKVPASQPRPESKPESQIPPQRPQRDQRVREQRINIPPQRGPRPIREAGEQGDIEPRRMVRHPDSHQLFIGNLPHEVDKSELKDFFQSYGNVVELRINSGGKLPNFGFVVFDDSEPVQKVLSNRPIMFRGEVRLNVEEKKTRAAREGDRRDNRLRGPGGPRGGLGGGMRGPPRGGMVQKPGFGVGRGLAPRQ
The log2 enrichment of `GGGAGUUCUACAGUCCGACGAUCCUCAAGUCCUGUGCUACACAUCGUAUGUACCGAAUCGGAAAAAAAGGAGGAGGAAAGUAUUAUGUUACGCCGUUCGGAUCUGCACUUCCAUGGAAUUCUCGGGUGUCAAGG` is reported as -0.328.
For `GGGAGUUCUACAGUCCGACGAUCAAGUCCUGUGCUACACAUCGUAUGUACCGAAUCGGGAAAAAAAGGGAGGGAAAGGGAAAGUAUUAUGUUACGCCGUUCGGAUCUGCACUUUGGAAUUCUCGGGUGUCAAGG`, the log2 enrichment was -0.342.
For `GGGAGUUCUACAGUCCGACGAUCGCAGGAAGUAAAAACAAAUGGAAAUGCUUCGGAUAGUGGCAGGGGUGGGGGUUCCUAAGGAAAGGGUGGGAUGGGAGUGGGUAAAGAGUUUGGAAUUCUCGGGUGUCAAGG`, the log2 enrichment was -0.111.
The log2 enrichment of `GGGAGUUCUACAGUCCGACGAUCCCUCAAGUCCUGUGCUACACAUCGUAUGUACCGAAUCGGUGGAAAGGUUUGGAAAGUAUUAUGUUACGCCGUUCGGAUCUGCACUUCCAGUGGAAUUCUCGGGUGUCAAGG` is reported as -0.509.
`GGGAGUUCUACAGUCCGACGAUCCCUCAAGUCCUGUGCUACACAUCGUAUGUACCGAAUCGGUUUGGAGGUUUGGAAAGUAUUAUGUUACGCCGUUCGGAUCUGCACUUCCAGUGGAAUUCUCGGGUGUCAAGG` gave a log2 enrichment of -0.711.
The log2 enrichment of `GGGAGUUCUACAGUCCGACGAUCCACAGACAACACGCACCCACACAGACACAGAGGGAAGGGGUUGGGAUGGGGACAGGGUGCACAGCAGGGCGGGGUAGGACCCCAGCCACUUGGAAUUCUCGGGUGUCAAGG` is reported as -0.932.
`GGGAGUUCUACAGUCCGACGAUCUGGCCCUGGUGGCAUGCGGGCAGGAAGAGGUGGCCUCAUGGAUCGUGGUGGUCCCGGUGGAAUGUUCAGAGGUGGCCGUGGUGGAGACAGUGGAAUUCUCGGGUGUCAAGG` has a log2 enrichment of 0.322.
`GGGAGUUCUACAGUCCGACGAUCCUCAAGUCCUGUGCUACACAUCGUAUGUACCGAAUCGGGUGGGAAAGGGUGGGAAAGUAUUAUGUUACGCCGUUCGGAUCUGCACUUCCAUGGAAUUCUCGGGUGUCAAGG` has a log2 enrichment of 0.104.

Block 4 — method: protein binding microarray; form: double-stranded DNA, one strand shown; matrix: in vitro; tested at: not given; reference: not given; reading: higher = stronger binding
Target: Histone acetyltransferase KAT6A, winged helix 1, GST fusion (KAT6A, Homo sapiens, UniProt Q92794, residues 1-85)
Notes: 8-mer, flanks averaged, mean of 2 arrays, mostly near background
Construct (chain): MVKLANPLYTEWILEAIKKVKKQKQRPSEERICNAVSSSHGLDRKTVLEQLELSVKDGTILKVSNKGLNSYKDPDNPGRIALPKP
`ACGAATGA` gave an E-score of -0.236.
`CAGCCTCA` gave an E-score of -0.189.
`AAGTCCGC` has an E-score of 0.294.
With `CATGACAC` the E-score was -0.00552.
The E-score of `TATGAATA` is reported as -0.142.
`CCGCGAAA` gave an E-score of 0.34.
The E-score of `GGCCAACA` is reported as -0.0758.
`CTAAAAGC` has an E-score of 0.0764.
`CTAGTCCC` gave an E-score of -0.0638.
The E-score of `ACCGAAGA` is reported as -0.259.
With `TTGGTAAA` the E-score was -0.0085.
The E-score of `GCCCCCAA` is reported as -0.191.
With `GGACCATA` the E-score was -0.0885.
`CTCAGGTA` has an E-score of -0.184.
With `TCCTACGA` the E-score was -0.177.
`CAACACCG` gave an E-score of 0.228.
With `AGAATGGA` the E-score was -0.16.
With `ATGCAAAC` the E-score was -0.0797.
With `ATTCGGCC` the E-score was 0.184.
`GATGAATC` has an E-score of -0.186.
The E-score of `ATCCACCA` is reported as -0.189.
`AAGGAAAT` has an E-score of -0.311.

Block 5 — target: CCNE2, cyclin fold, Cln2 fusion (human); method: yeast growth competition, sequencing; matrix: yeast; notes: weak parent motif; reference: not given; reading: higher = stronger binding
Parent: PKMYT1 docking peptide (human); SFEPRNLLSLFED; partner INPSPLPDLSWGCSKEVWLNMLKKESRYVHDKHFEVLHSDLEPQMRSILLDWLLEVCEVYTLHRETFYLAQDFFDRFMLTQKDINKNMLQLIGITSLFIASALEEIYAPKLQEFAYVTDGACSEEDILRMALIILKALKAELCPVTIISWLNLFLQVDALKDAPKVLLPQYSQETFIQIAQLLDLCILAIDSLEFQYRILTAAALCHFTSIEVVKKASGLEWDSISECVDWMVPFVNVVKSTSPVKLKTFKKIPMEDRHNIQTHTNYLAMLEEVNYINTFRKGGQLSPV
Under “normalised enrichment score”, `R5K` is recorded as 0.709.
Under “normalised enrichment score”, `E12Y` is recorded as 0.357.
`F11D` — result for “normalised enrichment score”: -0.307.
For `E12A`, “normalised enrichment score” read 0.329.
For `E12C`, “normalised enrichment score” read 0.502.
Under “normalised enrichment score”, `L8T` is recorded as 0.39.
Under “normalised enrichment score”, `E12F` is recorded as 0.233.
Under “normalised enrichment score”, `L8W` is recorded as -0.36.
Under “normalised enrichment score”, `S9H` is recorded as 0.276.
For `L8S`, “normalised enrichment score” read -0.386.
`P4N` — result for “normalised enrichment score”: -0.656.
For `S1F`, “normalised enrichment score” read 0.431.
For `E3I`, “normalised enrichment score” read -0.0572.
`R5F`: “normalised enrichment score” -0.457.
`F11H`: “normalised enrichment score” -0.153.
For `F2C`, “normalised enrichment score” read 0.257.
